Experimental data pooled from the literature.
A part holds a random share of what one study measured.
Chain of UniProt O15294 (whole entry, looked up): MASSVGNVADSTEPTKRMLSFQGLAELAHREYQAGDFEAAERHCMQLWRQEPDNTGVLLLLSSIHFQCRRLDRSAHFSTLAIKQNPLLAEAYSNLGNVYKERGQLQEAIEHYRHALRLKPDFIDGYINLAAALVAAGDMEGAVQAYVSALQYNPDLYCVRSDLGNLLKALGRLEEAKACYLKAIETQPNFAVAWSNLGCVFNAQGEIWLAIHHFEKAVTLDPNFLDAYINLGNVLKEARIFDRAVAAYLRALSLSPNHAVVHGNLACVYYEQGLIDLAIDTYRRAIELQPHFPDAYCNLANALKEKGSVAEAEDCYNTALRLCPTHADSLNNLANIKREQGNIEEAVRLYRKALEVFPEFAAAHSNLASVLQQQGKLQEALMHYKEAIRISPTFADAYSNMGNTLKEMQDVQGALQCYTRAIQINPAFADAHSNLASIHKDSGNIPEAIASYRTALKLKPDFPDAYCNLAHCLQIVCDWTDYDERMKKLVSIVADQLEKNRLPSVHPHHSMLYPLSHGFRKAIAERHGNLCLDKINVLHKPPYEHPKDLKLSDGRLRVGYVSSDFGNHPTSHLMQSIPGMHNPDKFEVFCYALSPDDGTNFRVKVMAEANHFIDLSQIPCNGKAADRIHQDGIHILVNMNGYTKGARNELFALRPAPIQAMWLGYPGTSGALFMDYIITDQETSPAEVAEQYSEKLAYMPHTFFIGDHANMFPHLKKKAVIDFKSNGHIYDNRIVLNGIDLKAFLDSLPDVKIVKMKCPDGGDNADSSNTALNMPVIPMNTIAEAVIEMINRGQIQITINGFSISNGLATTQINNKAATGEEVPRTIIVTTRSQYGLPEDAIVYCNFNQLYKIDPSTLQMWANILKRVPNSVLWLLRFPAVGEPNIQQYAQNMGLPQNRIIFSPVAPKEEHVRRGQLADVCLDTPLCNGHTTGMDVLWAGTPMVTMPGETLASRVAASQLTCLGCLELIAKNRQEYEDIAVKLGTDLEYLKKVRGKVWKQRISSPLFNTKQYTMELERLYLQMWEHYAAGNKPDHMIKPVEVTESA

Block 1 — method: universal PBM; molecule type: double-stranded DNA, one strand shown; matrix: in vitro; tested at: not given; reading: higher = stronger binding
Target: Sal-like protein 4, full length isoform B (SALL4, Homo sapiens, UniProt Q9UJQ4-2, residues 1-616)
Setting: 8-mer, flanks averaged, mean of replicates
Oligonucleotide | E-score
AATAACTC | 0.261
CGCGTATC | -0.0901
AGCTAATC | 0.0471
AAGTGTAC | 0.177
AAATTGGA | 0.246
AGTGTAGG | 0.0775
CCTTGGAG | -0.0415
GGGGGCAA | -0.128

Block 2 — method: protein-binding microarray; molecule type: double-stranded DNA, one strand shown; matrix: in vitro; tested at: not given; reading: higher = stronger binding
Target: Max-binding protein MNT, bHLH-zipper, MAX partner unstated (MNT, Homo sapiens, UniProt Q99583, residues 220-300)
Setting: k-mer, scored over probes, only values ≥0.25
Construct (chain): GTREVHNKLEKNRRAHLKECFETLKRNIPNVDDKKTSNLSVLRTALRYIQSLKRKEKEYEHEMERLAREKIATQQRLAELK
Oligonucleotide | E-score
GCATGCTA | 0.401
CGTGTTAG | 0.382
ACCCCAAA | 0.263
ATGCACGG | 0.316
ACTCACAT | 0.296
GCGTGACC | 0.4
CATGGACC | 0.259
GCGATCAC | 0.272

Mixed results
Molecule | tested on | test | test system | setting | how to read | quantity | result
ALDH1L1 (Homo sapiens, UniProt O75891) | RAN (Homo sapiens, UniProt P62826) | cross-linking MS | cells | added: BSPNO |  | cross-linked residues | K469 to K38
HWQHVHHADPSDAVK | UDP-N-acetylglucosamine--peptide N-acetylglucosaminyltransferase 110 kDa subunit (OGT, Homo sapiens, UniProt O15294) | binding, phage display NGS | peptide | panning round 2 | relative to: input library | minimum log2 enrichment ratio | 3.23

Repeated from above (block 1):
Oligonucleotide | E-score
CGCGTATC | -0.0901
